Assay results of several laboratories.
Every numbered part comes from another study and shows a few of its results, in no order. Positions count from the first letter of the parent shown.
Chain of UniProt Q9UNE7 (whole entry, looked up): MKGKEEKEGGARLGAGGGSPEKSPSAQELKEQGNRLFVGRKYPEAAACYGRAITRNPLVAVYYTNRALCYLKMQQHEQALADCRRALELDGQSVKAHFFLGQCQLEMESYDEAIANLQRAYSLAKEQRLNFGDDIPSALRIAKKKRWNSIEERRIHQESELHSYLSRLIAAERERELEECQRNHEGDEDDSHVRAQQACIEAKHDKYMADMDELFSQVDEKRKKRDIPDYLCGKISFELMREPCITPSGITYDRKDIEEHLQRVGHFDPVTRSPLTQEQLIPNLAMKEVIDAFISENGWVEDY
Chain of UniProt Q9BY78 (whole entry, looked up): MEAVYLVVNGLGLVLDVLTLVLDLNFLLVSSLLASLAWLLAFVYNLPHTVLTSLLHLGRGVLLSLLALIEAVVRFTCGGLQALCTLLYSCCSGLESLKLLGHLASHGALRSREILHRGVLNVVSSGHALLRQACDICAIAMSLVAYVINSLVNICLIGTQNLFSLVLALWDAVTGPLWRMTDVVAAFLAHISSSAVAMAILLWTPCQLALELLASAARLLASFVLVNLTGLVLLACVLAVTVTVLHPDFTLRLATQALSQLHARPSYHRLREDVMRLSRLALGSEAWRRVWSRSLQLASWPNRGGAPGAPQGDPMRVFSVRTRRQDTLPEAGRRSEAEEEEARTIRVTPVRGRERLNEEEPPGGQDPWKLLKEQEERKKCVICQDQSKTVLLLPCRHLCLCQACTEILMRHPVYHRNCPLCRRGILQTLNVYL
Chain of UniProt O43567 (whole entry, looked up): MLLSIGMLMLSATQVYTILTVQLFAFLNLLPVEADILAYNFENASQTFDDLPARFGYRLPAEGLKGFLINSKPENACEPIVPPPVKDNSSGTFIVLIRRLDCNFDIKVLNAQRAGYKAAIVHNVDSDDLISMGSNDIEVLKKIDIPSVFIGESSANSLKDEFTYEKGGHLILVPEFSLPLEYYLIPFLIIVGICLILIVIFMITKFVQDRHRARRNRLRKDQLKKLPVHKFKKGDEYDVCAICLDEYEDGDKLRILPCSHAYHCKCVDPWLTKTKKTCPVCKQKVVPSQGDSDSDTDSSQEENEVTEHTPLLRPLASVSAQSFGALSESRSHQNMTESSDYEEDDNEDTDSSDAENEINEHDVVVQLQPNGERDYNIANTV

Block 1 — observed: peptide-MHC binding; molecule type: peptide; concentration: concentration not given
Target: HLA class I histocompatibility antigen, A alpha chain, allele A*25:01 (Homo sapiens, UniProt P04439)
Under binding, `KLHRYIDSM` is recorded as “inactive”.
Under binding, `KVRDRNFQL` is recorded as “inactive”.
`FAAPHRGVA` — result for binding: “inactive”.
For `YLHIHPFKI`, binding read “inactive”.
For `RGRKPIFRK`, binding read “inactive”.
Under binding, `AVGFFPTGV` is recorded as “inactive”.
Under binding, `GLFWGGIWY` is recorded as “inactive”.
Under binding, `WFLYVSQQI` is recorded as “inactive”.

Block 2 — target: UBE2D2 UBC core domain (UniProt P62837); method: yeast two-hybrid; matrix: yeast; notes: mostly zero background; relative to: not given; reading: higher = stronger interaction
Chain of UniProt P62837 (whole entry, looked up): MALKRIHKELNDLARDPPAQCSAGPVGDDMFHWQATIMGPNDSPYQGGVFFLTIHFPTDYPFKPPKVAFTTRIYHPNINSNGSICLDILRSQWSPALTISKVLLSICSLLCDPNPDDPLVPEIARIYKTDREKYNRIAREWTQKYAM
Under “lacZ reporter activity”, `STUB1 RING domain (UniProt Q9UNE7)` is recorded as 0.
Under “lacZ reporter activity”, `RNF26 RING domain (UniProt Q9BY78)` is recorded as 9450.
Under “lacZ reporter activity”, `RNF13 RING domain (UniProt O43567)` is recorded as 13100.

Block 3 — target: CCNE2, cyclin fold, Cln2 fusion (human); method: yeast growth competition, sequencing; matrix: yeast; notes: strong parent motif; relative to: not given; reading: higher = stronger binding; starting sequence: viral docking peptide; YKVKRRLVFGADD
`A11R`: “normalised enrichment score” 5.63.
For `F9E`, “normalised enrichment score” read 0.299.
`V3H`: “normalised enrichment score” 2.42.
`K4V` — result for “normalised enrichment score”: 4.16.
Under “normalised enrichment score”, `V8H` is recorded as 5.41.
Under “normalised enrichment score”, `K2R` is recorded as 5.74.
For `G10I`, “normalised enrichment score” read 4.37.
`F9M`: “normalised enrichment score” 1.39.

Mixed results
`CCCC(C)(COC(N)=O)COC(=O)NC(C)C` (centres unmarked) gave an inhibition of -26.7% (Sarcocystis neurona; parasite growth; 10 µM).

For quick reference, copied from above (block 2):
Under “lacZ reporter activity”, `RNF26 RING domain (UniProt Q9BY78)` is recorded as 9450.
Under “lacZ reporter activity”, `RNF13 RING domain (UniProt O43567)` is recorded as 13100.
